Measured values pooled from the literature.
A part holds a random share of what one study measured. Substitutions count along the parent as printed.

Block 1
Target: Interferon regulatory factor 3, full length, phosphomimetic (IRF3, Homo sapiens, UniProt Q14653, residues 1-427, S386D/S396D/S398D/S402D/T404D/S405D)
Technique: protein-binding microarray
Form: double-stranded DNA, one strand shown
Medium: in vitro
Concentration: 2540 nM top
Setting: 60-bp whole probe
Added: salmon DNA 0.4 mg/ml
Baseline: random background probes
Reading: higher = stronger binding
Shared flanks, not repeated: GCCTAGCAC … GTCTTGATTCGCTTGACGCTGCTG
Construct (chain): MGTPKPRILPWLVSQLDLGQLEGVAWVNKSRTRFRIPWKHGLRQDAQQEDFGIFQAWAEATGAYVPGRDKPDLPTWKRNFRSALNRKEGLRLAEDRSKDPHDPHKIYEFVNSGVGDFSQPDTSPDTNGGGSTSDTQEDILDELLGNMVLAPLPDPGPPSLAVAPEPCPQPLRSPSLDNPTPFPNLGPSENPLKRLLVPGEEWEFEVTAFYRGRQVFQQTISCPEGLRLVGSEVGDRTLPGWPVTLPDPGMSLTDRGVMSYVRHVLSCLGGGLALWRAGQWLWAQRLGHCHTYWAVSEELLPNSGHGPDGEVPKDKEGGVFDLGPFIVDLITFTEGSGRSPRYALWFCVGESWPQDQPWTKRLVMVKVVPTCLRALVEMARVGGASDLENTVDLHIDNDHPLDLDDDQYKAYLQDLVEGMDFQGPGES
Sequence	fitted relative affinity
TTAGTACTGGGTCTCGGTTAGTGCTAG	-0.407 z-score
TTAGATTTCAGGACTGGATTAGTGCTA	0.619 z-score
TTAGGACTGGAACTGGGTTAGTGCTAG	-0.598 z-score
TCATCTCCAGGGTTTCTCACTGTGCTA	0.302 z-score
GACGATTCCAGTTCCGAGACGTGCTAG	1.77 z-score
GACGGTCTCCTTTTCGTGACGTGCTAG	4.88 z-score
ATAAACTTAGTTTTCAATTTGTGCTAG	2.25 z-score
TCTCCTTTCCAAATACCCTCGTGCTAG	6.89 z-score
TTAGGTATCAGGACTGGGTTAGTGCTA	1.67 z-score
CCAAATCTGTGTTATTAAAATGTGCTA	0.669 z-score
GAAGGTCTCCTACTGCTGACGTGCTAG	0.552 z-score
AACTTTGGTATCTGGCATCTGTGCTAG	-0.143 z-score
CAGCACATGCATCTCCCACAGTGCTAG	-0.503 z-score
GACGGTATCGGGTTTCGGCACGTGCTA	2.79 z-score
TTAAGACTGGACTATCGGTTAGTGCTA	-0.335 z-score
GACGAACTGAGACAGGAGACGTGCTAG	0.0124 z-score
TTAGATCTCAGATTGGATTAGTGCTAG	0.195 z-score
GACGGAGTGGGTTTCGGGACGTGCTAG	1.2 z-score
TCACTTTTTGCTTTCTTACTGTGCTAG	1.98 z-score
CATACAATTTCAGATTCCAGTGTGCTA	2.75 z-score
TCTGTTTTTGCTTTCCTTTAGTGCTAG	3.83 z-score
TTAAGTCTCGGACTGGGTTAGTGCTAG	-0.168 z-score
TCAGATATCAGACTGGATTAGTGCTAG	0.611 z-score
GACGAACTGAGTATCGAGAAGTGCTAG	-0.0718 z-score

Block 2
Target: Sal-like protein 4, full length isoform A (SALL4, Homo sapiens, UniProt Q9UJQ4, residues 1-1053)
UniProt Q9UJQ4, sequence (whole entry, looked up): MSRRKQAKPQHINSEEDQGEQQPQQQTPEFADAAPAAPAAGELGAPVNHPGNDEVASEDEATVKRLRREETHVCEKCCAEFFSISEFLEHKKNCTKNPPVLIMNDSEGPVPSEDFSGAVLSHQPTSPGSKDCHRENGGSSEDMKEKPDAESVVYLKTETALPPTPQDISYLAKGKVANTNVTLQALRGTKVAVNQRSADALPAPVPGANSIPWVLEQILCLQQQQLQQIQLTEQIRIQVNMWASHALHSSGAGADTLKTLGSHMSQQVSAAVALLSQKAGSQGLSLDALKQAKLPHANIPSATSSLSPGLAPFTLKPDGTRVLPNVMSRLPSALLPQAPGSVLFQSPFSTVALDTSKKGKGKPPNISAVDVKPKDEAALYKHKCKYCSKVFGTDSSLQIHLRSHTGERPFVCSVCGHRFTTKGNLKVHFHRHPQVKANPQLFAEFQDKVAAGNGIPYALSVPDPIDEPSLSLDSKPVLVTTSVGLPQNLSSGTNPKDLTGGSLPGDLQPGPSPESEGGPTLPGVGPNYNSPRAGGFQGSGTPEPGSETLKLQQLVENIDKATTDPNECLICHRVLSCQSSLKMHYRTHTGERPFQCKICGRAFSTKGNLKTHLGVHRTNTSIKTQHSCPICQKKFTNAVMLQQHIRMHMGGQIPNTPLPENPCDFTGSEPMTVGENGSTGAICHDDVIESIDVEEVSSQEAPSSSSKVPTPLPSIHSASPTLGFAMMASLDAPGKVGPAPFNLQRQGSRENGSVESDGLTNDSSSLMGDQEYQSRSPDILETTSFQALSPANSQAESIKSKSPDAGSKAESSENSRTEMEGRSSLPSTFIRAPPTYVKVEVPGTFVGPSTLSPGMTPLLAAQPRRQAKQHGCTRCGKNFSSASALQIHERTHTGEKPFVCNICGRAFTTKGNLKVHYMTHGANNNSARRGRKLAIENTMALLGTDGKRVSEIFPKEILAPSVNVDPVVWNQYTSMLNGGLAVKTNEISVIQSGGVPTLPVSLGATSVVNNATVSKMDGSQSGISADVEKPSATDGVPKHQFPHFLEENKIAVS
Technique: universal PBM
Form: double-stranded DNA, one strand shown
Medium: in vitro
Concentration: 600 nM
Setting: 8-mer, flanks averaged, mean of replicates
Reading: higher = stronger binding
Sequence	E-score
ATTCACCA	0.099
ATTAGCTA	0.131
ATGAGCAC	-0.0917
ACCTCTGA	-0.0537
AACTTGGT	0.166
CGTAAGCC	-0.163
GAATCCCA	0.028
GAAACTCA	0.143
AACTAGAA	0.236
AGTCAAGG	-0.0363
TGAAGACA	0.136
ATTCCTAC	0.11
AAAGTCGT	0.124
GAGCTTGC	-0.261
GCCCCATA	-0.0911
CGGTGGTC	-0.22
CGGAGCCG	-0.389
CATATCTA	0.338
CGTAGCTC	-0.0959
CCTTCCAG	-0.207
AGCCCGCA	-0.255
GACATTGC	0.0174
GAGATGGA	-0.202
CCAATCGC	-0.126
CTTGCCCA	-0.0744

Block 3
Target: PABPC1L2, full length, GST fusion (mouse, UniProt A0ABA7IW68)
Technique: RNAcompete
Form: RNA
Medium: in vitro
Concentration: 20 nM
Setting: 7-mer, probes averaged, single round
Baseline: mean of 7-mers
Reading: higher = stronger binding
Target sequence (chain): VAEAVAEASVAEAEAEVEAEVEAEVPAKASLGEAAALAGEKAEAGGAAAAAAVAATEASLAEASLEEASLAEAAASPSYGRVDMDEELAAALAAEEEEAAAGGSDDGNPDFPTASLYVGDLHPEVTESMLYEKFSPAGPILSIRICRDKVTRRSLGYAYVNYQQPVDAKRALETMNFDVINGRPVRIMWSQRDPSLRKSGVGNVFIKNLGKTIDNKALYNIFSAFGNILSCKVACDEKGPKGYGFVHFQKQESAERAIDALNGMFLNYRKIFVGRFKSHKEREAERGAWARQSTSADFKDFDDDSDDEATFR
Sequence	7-mer Z-score
UCUAAAC	0.407
CGUAAGU	-0.42
CAAUUAC	-0.184
GAGUCUA	-0.329
GAUAACG	-0.0917
GGGUGAG	-0.0536
CGGAGGG	0.193
GCACCUC	-0.331
UGGAUAG	0.0714
AGUUUUG	-0.411
UCAAAUC	-0.179
ACUGGAG	0.0714
UAAGGAA	0.0913
CGCUAUU	-0.429
GCGUGUG	-0.197
CGACGGA	-0.0699
UCUAUGA	-0.266

Block 4
Target: RNA binding protein fox-1 homolog 2, RRM domain, GST-SBP tag (RBFOX2, Homo sapiens, UniProt O43251-10, residues 100-194)
Technique: RNA Bind-n-Seq
Form: RNA
Medium: in vitro
Concentration: 365 nM
Setting: natural RNA segment, single round, ends assumed
Baseline: no-protein control
Reading: higher = stronger binding
Target sequence (chain): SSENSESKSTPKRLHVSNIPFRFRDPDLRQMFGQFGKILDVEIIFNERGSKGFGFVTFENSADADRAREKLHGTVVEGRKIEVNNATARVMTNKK
Sequence	RBNS enrichment (R)
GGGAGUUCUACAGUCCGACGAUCUAGUUUCACAAUUACGAGUGAAAAAUCAUGUAAUUAUCUGUAAAUAUGUAGCUAACAAAUUGACCUAGUUUCUGUACUUUUUUGGUUUUGUACUAAAGUUUAUAGGUCUGUGGAAUUCUCGGGUGCCAA	0.48
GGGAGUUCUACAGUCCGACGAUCACAUGCCACCCCCUCAGAGGACGUCAGUUCAGGGCACGUCUCAAUAUGAGUCAAGUGCCAGCUGGACCUGAGGCCUGCUUCCCCGCGUGCGGGGCAGAGGCCCUUCUCUGUGGAAUUCUCGGGUGCCAA	0.18
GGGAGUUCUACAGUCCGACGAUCUACUCAGGAGGCUGAGGCAGGAGAAUUGCUUGAACCCAGGAGGCGGAGGUUGCAGUGAGCCAGGAUUGUGCCAUUGCACUCCAGCCUGGGCAACAAGAACAAAACUCCAUUGGAAUUCUCGGGUGCCAA	0.321
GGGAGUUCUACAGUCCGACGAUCGCGCUGUGCCAAAGCCAGGUCCGAGGCCAAAGUUCUCCCUGCCAUCCUUGGUGCCGUCCUGCCCCUUCCUCCUUCAUGCCUGGGCCUGCAGGCCCACCCCAGCCACCACUUGGAAUUCUCGGGUGCCAA	0.615
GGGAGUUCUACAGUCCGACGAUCAGAAAUUCCUAUCUACUUUAUUAAGCAGUAUUGAUCUGACUGUGGAAACAUCCUCUCACUUGCAUUCUUUUAACUUAAAACUAUUUAAGAACUGAUGUUCCGAUUAUUGUUGGAAUUCUCGGGUGCCAA	0.478
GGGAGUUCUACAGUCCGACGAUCCCCUGGAGCACUGGGAACAACUGGUCUCCUGUGAUGGCUGGGACUCCUCGCGGGAGGGGACUGCGCUGCUAUAGCUCUUGCUGCCUCUCUUGAAUAGCUCUAACUCCAAAUGGAAUUCUCGGGUGCCAA	0.281
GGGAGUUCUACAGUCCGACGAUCACUAUAUUGUCGUGUGGGUGUGUGUCUGCACCCACAUCCUCACACAUUGAUCUAGAUCUGCCUUUAUCCACUCGAAUUAUAAACAGCUCGGCUUGUCCUUGUCCCAUGUGUGGAAUUCUCGGGUGCCAA	0.385
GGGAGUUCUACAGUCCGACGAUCCUUCCUGUUUUUAUCUAAUAAAAUGCUAACCUGCCCUGAGUUUCCAUUACUGUGGGUGGGGUUCCCCUGGGCCAAACAGUGAUUUGUCUCCCUCAAUGUGUACACCGCUCUGGAAUUCUCGGGUGCCAA	0.38
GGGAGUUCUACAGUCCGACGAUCGCAGACCAAAAGUCACAACAGUGGCAGGCAGGCUGCAUGCUUUUUGUAUCGCUCACGAUGCACUGUGGUGUGCUCGGGUAUCUUUCCUCACUGGAGAGAGCAAGCACAGGUGGAAUUCUCGGGUGCCAA	0.577
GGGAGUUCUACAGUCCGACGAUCUGCACAUAACCAAAUGGGGGCCAAUGGCACAGUACCUUACUCAUCAUUUAAAAACUAUAUUUACAGAAGAUGUUUGGUUGCUGGGGGGGCUUUUUUAGGUUUUGGGGCAUUGGAAUUCUCGGGUGCCAA	0.875
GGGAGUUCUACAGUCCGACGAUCGUAUUAUAUUUUUAUAGAAAUGUUUAUUUUUAAUGAUGUAAGAAAAAUUUUCCUUAGGCCGCAGAAAUCCUGCACUGUGAGCAUUUCAGAAGAGGUAUGUGAGACCCAGUUGGAAUUCUCGGGUGCCAA	0.539
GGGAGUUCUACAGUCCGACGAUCUUCUUCAAUUUCUUUCAGGACACUUGGGUUGAAUUCAGUAAGUUUCCUCUGAAGCACCCUGAAGGGUGCCAUCCUUACAGAGCUAAGUGGAGACGUUUCCAGAUCAGCCCUGGAAUUCUCGGGUGCCAA	0.215

Block 5
Target: CCNB1, cyclin fold, Cln2 fusion (human)
Technique: yeast growth competition, sequencing
Medium: yeast
Setting: weak parent motif
Baseline: not given
Reading: higher = stronger binding
Starting sequence: RBL1 docking peptide (human); GSAKRRLFGEDPP
Variant	normalised enrichment score
GSATRRLFGEDPP [K4T]	0.713
GSAKRRLFGEDPC [P13C]	0.417
GSAKRRLFREDPP [G9R]	0.962
GSAKRRLPGEDPP [F8P]	0.692
GSAKRRLGGEDPP [F8G]	0.526
GSLKRRLFGEDPP [A3L]	0.749
GSALRRLFGEDPP [K4L]	0.355
GSAKRLLFGEDPP [R6L]	-0.409
GSYKRRLFGEDPP [A3Y]	0.771
GFAKRRLFGEDPP [S2F]	0.102
GSAKRRLFHEDPP [G9H]	0.24
GSAKRRLAGEDPP [F8A]	0.0395
GSAKRRLFGEPPP [D11P]	-0.916
GSAKRDLFGEDPP [R6D]	-0.429
GRAKRRLFGEDPP [S2R]	0.984
GKAKRRLFGEDPP [S2K]	-0.162
GSRKRRLFGEDPP [A3R]	0.494
GSAKHRLFGEDPP [R5H]	0.362
GVAKRRLFGEDPP [S2V]	0.55
GSAVRRLFGEDPP [K4V]	1.69
GSVKRRLFGEDPP [A3V]	2.93

A few entries again (block 1):
Sequence	fitted relative affinity
AACTTTGGTATCTGGCATCTGTGCTAG	-0.143 z-score
CAGCACATGCATCTCCCACAGTGCTAG	-0.503 z-score
GACGGTATCGGGTTTCGGCACGTGCTA	2.79 z-score
TTAAGACTGGACTATCGGTTAGTGCTA	-0.335 z-score
GACGAACTGAGACAGGAGACGTGCTAG	0.0124 z-score
TTAGATCTCAGATTGGATTAGTGCTAG	0.195 z-score
GACGGAGTGGGTTTCGGGACGTGCTAG	1.2 z-score
TCACTTTTTGCTTTCTTACTGTGCTAG	1.98 z-score
CATACAATTTCAGATTCCAGTGTGCTA	2.75 z-score
TCTGTTTTTGCTTTCCTTTAGTGCTAG	3.83 z-score
TTAAGTCTCGGACTGGGTTAGTGCTAG	-0.168 z-score
TCAGATATCAGACTGGATTAGTGCTAG	0.611 z-score
GACGAACTGAGTATCGAGAAGTGCTAG	-0.0718 z-score
